Published values collected from several papers.
Each line is one published result; not all experiments were run side by side.

`CCOc1ccc(NC(=O)CC(C)O)cc1` (stereo not drawn) gave an activity score of 13.4 (human iPSC-derived cardiomyocytes; MyBP-C/MYH ratio, plate-normalised SD score; concentration not given, primary screen; direction not given).
`CCn1cc(-c2cc(Cn3ccnc3)cc3c2CCN([C@H](c2cc(OC)ccn2)C2CC2)C3=O)c(C(F)(F)F)n1` has an EC50 of over 30 µM (NCI-H838; cell growth, inhibitor; 120 h).
`CS(=O)(=O)c1ccc([C@@H](O)[C@@H](CF)NC(=O)C(Cl)Cl)cc1` gave an activity score of -3.5 (human iPSC-derived cardiomyocytes; MyBP-C/MYH ratio, plate-normalised SD score; concentration not given, primary screen; direction not given).
For `Cn1cc(Nc2nccc(-c3ccc4c(c3)CN(C3COC3)CC[C@H]4NC(=O)c3cn(C(C)(C)C)nn3)n2)cn1`, “pathway activation z-score” read 3.27 (mouse splenic B cells; refers to: Integrin signalling; 30 mg/kg, IgD-activated in vivo; reference: vehicle, direction not given).
For `O=C(/C=C/C=C/C=C/C1CCCCC1)NC1=C[C@@](O)(/C=C/C=C/C=C/C(=O)NC2=C(O)CCC2=O)[C@@H]2O[C@@H]2C1=O`, the GI50 was 7.74 µM (NCI-H446; cell growth, CellTiter-Glo; 78 h).
`CCn1cc(-c2cc(Cn3ccoc3=N)cc3c2CCN([C@@H](C)c2cc(OC)ccn2)C3=O)c(C(F)(F)F)n1` gave an EC50 of 0.00185 µM (LS-411N; cell growth, inhibitor; 120 h).
The activity score of `COc1cc(NS(=O)(=O)c2ccc(N)cc2)ncn1` is reported as 3.2 (human iPSC-derived cardiomyocytes; MyBP-C/MYH ratio, plate-normalised SD score; concentration not given, primary screen; direction not given).
`COc1cnc2cccc(N3CCc4c(cc(Cn5ccnc5C)cc4-c4cn(C)nc4C(F)(F)F)C3=O)c2c1` has an EC50 of 2.35 µM (SK-BR-3; cell growth, inhibitor; 120 h).
`Cn1cc(-c2ccc(-c3cncc(Cl)c3N3CCC4(CCNC4=O)CC3)cc2)cn1`: “log2 fold change” 2.74 (COLO 205; gene expression, microarray, refers to: SAT1 (SSAT) mRNA; concentration not given, 6 h; reference: untreated cells).

Some of these lines once more:
`CS(=O)(=O)c1ccc([C@@H](O)[C@@H](CF)NC(=O)C(Cl)Cl)cc1` gave an activity score of -3.5 (human iPSC-derived cardiomyocytes; MyBP-C/MYH ratio, plate-normalised SD score; concentration not given, primary screen; direction not given).
